Experimental data of several laboratories.
Several values in a cell are separate wells, animals, samples, runs or records. ± gives the spread as reported.
ALB: Albumin (ALB, Bos taurus, UniProt P02769)

[11CH3]Nc1ccc(-c2nc3ccc(O)cc3o2)cn1 — distribution volume ratio (APP (Homo sapiens, UniProt P05067); binding, PET, reference Logan; control subjects, prefrontal cortex; baseline: cerebellum): 0.94 ± 0.11
C[n+]1cn([C@@H]2O[C@H](COP(=O)(O)OP(=O)([O-])OP(=O)(O)O)[C@@H](O)[C@H]2O)c2nc(N)nc(O)c21 — hydrolysis (DCPS (Homo sapiens, UniProt Q96C86); substrate, HPLC; 0.04 mM, 60 min, 37 °C): 43.9% and 44%
CC(C)[C@H](NC(=O)[C@H](CCCNC(=N)N)NC(=O)[C@@H](NC(=O)[C@H](CCC(N)=O)NC(=O)[C@H](CCC(N)=O)NC(=O)[C@@H](NC(=O)[C@H](Cc1c[nH]c2ccc(O)cc12)NC(=O)[C@@H]1CCCN1C(=O)[C@@H]1CCCN1C(=O)[C@H](Cc1ccccc1)NC(=O)[C@H](CO)NC(=O)CNC(=O)[C@H](CCCNC(=N)N)NC(=O)[C@H](CCCNC(=N)N)NC(=O)[C@H](CCCNC(=N)N)NC(=O)[C@H](CCCNC(=N)N)NC(=O)[C@H](CCCNC(=N)N)NC(=O)[C@@H](N)CCCNC(=N)N)C(C)C)[C@@H](C)O)C(=O)O — kon (Disks large homolog 4, PDZ3 domain (Homo sapiens, UniProt P78352); binding, surface plasmon resonance; pH 7.5, 25 °C): 24000 M⁻¹ s⁻¹
CC(=O)[O-].O.O.O.O.[Mn+2].[O-]c1ccc(Br)cc1C=NCCN1CCOCC1 — Gibbs free energy change (ALB; UV absorption titration): -5.66 kcal/mol
CC[C@H](C)[C@@H]1NC(=O)[C@H](Cc2ccccc2)NC(=O)[C@H](CC(=O)O)NC(=O)[C@H](CCCNC(=N)N)NC(=O)[C@H](Cc2ccccc2)NC(=O)[C@H](Cc2ccccc2)NC(=O)[C@@H](NC(=O)[C@H](CO)NC(=O)[C@H](CC(C)C)NC(=O)[C@H](CCCNC(=N)N)NC(=O)[C@H](CCSC)NC(=O)[C@H](C)N)CCCNC(=O)NCCCC[C@@H](C(=O)N[C@@H](CCC(N)=O)C(=O)N[C@@H](CCCNC(=N)N)C(=O)N[C@@H](CCCCN)C(=O)N[C@@H](CCCCN)C(=O)O)NC1=O — IC50 ratio (histidine kinase ComD (Streptococcus pneumoniae serotype 2, UniProt A0A0H2ZM50); reporter gene, antagonist; Streptococcus pneumoniae, D39 pcomX::lacZ; baseline: over CSP1-E1A): 5 fold
O=C1c2c(O)cc(O)cc2OC(c2ccc(O)c(O)c2)C1O (stereo not drawn) — remaining activity (YARS1 (Homo sapiens, UniProt P54577); enzyme activity, inhibitor; 100 µM): < 60%
COc1c(Cl)c(/C=C(\C)C(=O)O)c(OC)c2ccccc12 — reporter activity (HIF1α; NF90-8 and Pa03C; concentration not given, 24 h, 1% O2): no effect
CCC(CC)O[C@@H]1C=C(C(=O)OC(OC(=O)[C@@H](N)C(C)C)C(C)C)C[C@H](NC(=N)N)[C@H]1NC(C)=O (single isomer, unassigned) — Km (SLC15A1 (Homo sapiens, UniProt P46059); transporter uptake, substrate; pH 6, oocytes): 7.3 mM
N=C(N)NCCC[C@H](NC(=O)[C@H](CC(=O)O)NC(=O)[C@@H]1CSCC(=O)NCC(=O)N[C@@H](Cc2c[nH]cn2)C(=O)N[C@H](Cc2ccccc2)C(=O)N[C@@H](CCCNC(=N)N)C(=O)N[C@@H](Cc2c[nH]c3ccccc23)C(=O)N1)C(=O)N[C@@H](Cc1ccccc1)C(=O)NCC(N)=O — cAMP accumulation (MC4R (Homo sapiens, UniProt P32245); agonist; HEK293; 10 µM; baseline: MT-II): 37%
CNc1ccccc1C(=O)O[C@H]1C[C@H](n2cnc3c(N)ncnc32)O[C@@H]1COP(=O)(O)OP(=O)(O)O — pocket forward rate constant (Unconventional myosin-Va (Gallus gallus, UniProt Q02440, D297C/G292C/I296C/S293C/V295G); stopped-flow FRET; 25 °C, together with: MgCl2 10 mM): 0.74 ± 0.43 s⁻¹
O=C(NC[C@@H](Cc1ccc(F)cc1)N1CCC(O)(C(F)(F)F)CC1)C1(c2ccc(Cl)cc2)CCCC1 — EC50 fold change (TRPA1 (Homo sapiens, UniProt O75762, V875A); calcium influx, agonist; baseline: V875A mutant over wild type): ~2 fold
CCCCCCCCCCCCCC(=O)Nc1ccccc1SSc1ccccc1NC(=O)CCCCCCCCCCCCC — Gibbs free energy change (ALB; binding, fluorescence quenching; 298 K): -7.67 kcal/mol

A few entries again:
CNc1ccccc1C(=O)O[C@H]1C[C@H](n2cnc3c(N)ncnc32)O[C@@H]1COP(=O)(O)OP(=O)(O)O — pocket forward rate constant (Unconventional myosin-Va (Gallus gallus, UniProt Q02440, D297C/G292C/I296C/S293C/V295G); stopped-flow FRET; 25 °C, together with: MgCl2 10 mM): 0.74 ± 0.43 s⁻¹
[11CH3]Nc1ccc(-c2nc3ccc(O)cc3o2)cn1 — distribution volume ratio (APP (Homo sapiens, UniProt P05067); binding, PET, reference Logan; control subjects, prefrontal cortex; baseline: cerebellum): 0.94 ± 0.11
